Published values pooled from the literature.
Parts stem from different laboratories: compare values within a part only. Substitutions count along the parent as printed.
Sequence of UniProt P11229 (whole entry, looked up): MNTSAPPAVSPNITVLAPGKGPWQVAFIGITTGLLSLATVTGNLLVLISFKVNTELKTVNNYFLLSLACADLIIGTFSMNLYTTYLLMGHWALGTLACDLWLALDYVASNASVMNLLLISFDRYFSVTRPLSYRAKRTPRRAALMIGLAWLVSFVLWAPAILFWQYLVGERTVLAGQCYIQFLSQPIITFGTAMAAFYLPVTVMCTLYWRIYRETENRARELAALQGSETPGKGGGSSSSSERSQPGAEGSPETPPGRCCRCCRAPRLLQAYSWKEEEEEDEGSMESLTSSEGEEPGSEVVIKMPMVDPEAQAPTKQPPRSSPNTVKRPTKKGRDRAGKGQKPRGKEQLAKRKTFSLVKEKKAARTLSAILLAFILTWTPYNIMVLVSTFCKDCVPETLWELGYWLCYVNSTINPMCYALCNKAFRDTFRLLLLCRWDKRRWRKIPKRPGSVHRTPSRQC

Set 1
Target: Leukocyte tyrosine kinase receptor (LTK, Homo sapiens, UniProt P29376)
Sequence of UniProt P29376 (whole entry, looked up): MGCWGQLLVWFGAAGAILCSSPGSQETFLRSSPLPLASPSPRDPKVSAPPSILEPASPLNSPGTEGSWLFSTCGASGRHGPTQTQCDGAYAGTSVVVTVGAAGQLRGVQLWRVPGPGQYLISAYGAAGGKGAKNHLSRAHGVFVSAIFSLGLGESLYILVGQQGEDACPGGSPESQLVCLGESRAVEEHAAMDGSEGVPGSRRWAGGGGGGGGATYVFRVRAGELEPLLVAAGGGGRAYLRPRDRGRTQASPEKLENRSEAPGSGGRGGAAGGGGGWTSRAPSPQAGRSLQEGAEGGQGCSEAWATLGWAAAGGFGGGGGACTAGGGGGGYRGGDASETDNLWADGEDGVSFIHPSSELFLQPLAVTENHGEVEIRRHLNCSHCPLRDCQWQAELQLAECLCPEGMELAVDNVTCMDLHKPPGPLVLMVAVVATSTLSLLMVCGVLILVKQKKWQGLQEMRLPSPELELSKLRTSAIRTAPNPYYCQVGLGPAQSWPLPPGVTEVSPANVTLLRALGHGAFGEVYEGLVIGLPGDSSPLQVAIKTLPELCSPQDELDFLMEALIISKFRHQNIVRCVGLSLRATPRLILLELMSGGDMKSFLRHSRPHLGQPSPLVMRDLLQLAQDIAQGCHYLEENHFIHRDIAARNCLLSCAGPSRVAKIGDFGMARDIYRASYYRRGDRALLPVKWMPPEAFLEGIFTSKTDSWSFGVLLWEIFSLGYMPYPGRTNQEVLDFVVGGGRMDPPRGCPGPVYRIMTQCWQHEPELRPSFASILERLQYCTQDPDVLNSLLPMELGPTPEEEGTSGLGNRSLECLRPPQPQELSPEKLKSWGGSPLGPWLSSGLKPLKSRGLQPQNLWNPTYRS
Effect on: enzyme activity
Action: inhibitor
Method: radiometric
Tested at: 0.5 µM
With `Cn1c2ccccc2c2c3c(c4c5ccccc5n(CCC#N)c4c21)CNC3=O` the remaining activity was 8.79%.
With `O=C1NC(=O)C(c2cn(CCCn3ccnc3)c3ccccc23)=C1Nc1ccccc1` the remaining activity was 93.4%.
With `CNC(=O)c1cc(Oc2ccc(NC(=O)Nc3ccc(Cl)c(C(F)(F)F)c3)cc2)ccn1` the remaining activity was 99.9%.
`COc1ccc(CNC(=O)Nc2ncc([N+](=O)[O-])s2)cc1` has a remaining activity of 101%.
`O=c1cc(N2CCNCC2)oc2c(-c3ccccc3)cccc12` has a remaining activity of 96.9%.
The remaining activity of `CCOC(=O)c1c(C)[nH]c(/C=C2\C(=O)Nc3ccccc32)c1C` is reported as 66.9%.
`Cn1sc(=O)n(Cc2ccccc2)c1=O` has a remaining activity of 101%.
With `COC(=O)[C@]1(O)C[C@@H]2O[C@@]1(C)n1c3ccccc3c3c4c(c5c6ccccc6n2c5c31)C(=O)NC4` the remaining activity was 9.78%.
For `CO[C@H]1C[C@@H]2CC[C@@H](C)[C@@](O)(O2)C(=O)C(=O)N2CCCC[C@H]2C(=O)O[C@H]([C@H](C)C[C@@H]2CC[C@@H](O)[C@H](OC)C2)CC(=O)[C@H](C)/C=C(\C)[C@@H](O)[C@@H](OC)C(=O)[C@H](C)C[C@H](C)/C=C/C=C/C=C/1C`, the remaining activity was 107%.
The remaining activity of `Cc1nc(-c2ccccc2)c(-c2ccncc2)o1` is reported as 107%.
`COc1cc2ncnc(Nc3ccc(Oc4ccccc4)cc3)c2cc1OC` has a remaining activity of 98.3%.

Set 2
Target: CCNF, cyclin fold, Cln2 fusion (human)
Method: yeast growth competition, sequencing
Matrix: yeast
Setting: strong parent motif
Reference: not given
Reading: higher = stronger binding
Starting sequence: viral docking peptide; KKVKRRLFETREL; partner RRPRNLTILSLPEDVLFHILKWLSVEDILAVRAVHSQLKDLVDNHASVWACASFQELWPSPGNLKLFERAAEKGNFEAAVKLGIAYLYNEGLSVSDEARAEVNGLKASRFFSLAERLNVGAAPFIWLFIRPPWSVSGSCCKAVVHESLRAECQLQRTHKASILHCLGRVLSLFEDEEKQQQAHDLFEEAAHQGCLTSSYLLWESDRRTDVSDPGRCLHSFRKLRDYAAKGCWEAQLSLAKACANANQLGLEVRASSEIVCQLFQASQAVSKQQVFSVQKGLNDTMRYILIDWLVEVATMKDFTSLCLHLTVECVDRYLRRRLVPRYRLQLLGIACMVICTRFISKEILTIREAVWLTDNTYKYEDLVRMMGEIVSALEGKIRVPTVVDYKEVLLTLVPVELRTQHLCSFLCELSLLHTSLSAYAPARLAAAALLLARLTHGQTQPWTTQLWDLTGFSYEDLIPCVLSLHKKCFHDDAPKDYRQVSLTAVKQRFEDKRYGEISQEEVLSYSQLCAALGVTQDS
For `K4A`, “normalised enrichment score” read 7.92.
`F8L`: “normalised enrichment score” 0.897.
For `R5A`, “normalised enrichment score” read 1.15.
Under “normalised enrichment score”, `R5A L7A` is recorded as 0.435.
For `K1A`, “normalised enrichment score” read 7.55.
Under “normalised enrichment score”, `L13A` is recorded as 7.52.
For `F8A`, “normalised enrichment score” read 0.714.
Under “normalised enrichment score”, `T10A` is recorded as 7.44.

Mixed results
HLA class I histocompatibility antigen, A alpha chain allele A*26:01: HLA class I histocompatibility antigen, A alpha chain, allele A*26:01 (Homo sapiens, UniProt P04439)
`VGNVYVKF` — result for binding: “inactive” (HLA class I histocompatibility antigen, A alpha chain allele A*26:01; peptide-MHC binding; peptide; concentration not given).
For `N#CN1CC[C@@H](C(=O)Nc2nc3c(s2)CN(C(=O)CN=[N+]=[N-])CC3)C1`, the inhibition was 24.4% (Muscarinic acetylcholine receptor M1 (CHRM1, Homo sapiens, UniProt P11229); binding, radioligand binding; 10 µM).
Under binding, `QIIKLLPF` is recorded as “inactive” (HLA class I histocompatibility antigen, A alpha chain allele A*26:01; peptide-MHC binding; peptide; concentration not given).

A few entries again (set 1):
`O=c1cc(N2CCNCC2)oc2c(-c3ccccc3)cccc12` has a remaining activity of 96.9%.
The remaining activity of `CCOC(=O)c1c(C)[nH]c(/C=C2\C(=O)Nc3ccccc32)c1C` is reported as 66.9%.
`Cn1sc(=O)n(Cc2ccccc2)c1=O` has a remaining activity of 101%.
With `COC(=O)[C@]1(O)C[C@@H]2O[C@@]1(C)n1c3ccccc3c3c4c(c5c6ccccc6n2c5c31)C(=O)NC4` the remaining activity was 9.78%.
